Results collected from several papers.
Each line is one published result; not all experiments were run side by side.
Organism: Staphylococcus aureus

| Compound | assay | system | conditions | MIC |
| --- | --- | --- | --- | --- |
| CCCCCCCCCCn1cc[n+](CCCCCCCCOc2cc(OCCCCCCCC[n+]3ccn(CCCCCCCCCC)c3)cc(OCCCCCCCC[n+]3ccn(CCCCCCCCCC)c3)c2)c1.[Br-].[Br-].[Br-] | – | SH1000 MSSA | – | 2 µM |
| CN[C@H](CC(C)C)C(=O)N[C@H]1C(=O)N[C@@H](CC(N)=O)C(=O)N[C@H]2C(=O)N[C@H]3C(=O)N[C@H](C(=O)N[C@H](C(=O)NCc4cn(CC(=O)N[C@H](C(=O)N[C@@H](CCN)C(=O)N[C@H]5CCNC(=O)[C@H]([C@@H](C)O)NC(=O)[C@H](CCN)NC(=O)[C@H](CCN)NC(=O)[C@H](CC(C)C)NC(=O)[C@@H](CC(C)C)NC(=O)[C@H](CCN)NC5=O)[C@@H](C)O)nn4)c4cc(O)cc(O)c4-c4cc3ccc4O)[C@H](O)c3ccc(c(Cl)c3)Oc3cc2cc(c3O[C@@H]2O[C@H](CO)[C@@H](O)[C@H](O)[C@H]2O[C@H]2C[C@](C)(N)[C@H](O)[C@H](C)O2)Oc2ccc(cc2Cl)[C@H]1O | broth microdilution | MSSA ATCC 29213, cation-adjusted Mueller-Hinton broth | 20 to 24 h, 37 °C, 0.002% polysorbate 80 | 0.25 µg/mL |
| CCn1cc(/C=C/c2sc3ccccc3[n+]2CC)c2ccccc21 | – | 1466 | – | 1 µg/mL |
| CCCCCCCCCCCC[N+](C)(C)CCCCOc1cc(OCCCC[N+](C)(C)CCCCCCCCCCCC)cc(OCCCC[N+](C)(C)CCCCCCCCCCCC)c1.[Br-].[Br-].[Br-] | – | HA-MRSA ATCC 33591 | – | 4 µM |
| CNC(C)C1CCC(N)C(OC2C(N)CC(N)C(OC3OCC(C)(O)C(NC)C3O)C2O)O1 (centres unmarked) | microbial growth, broth dilution | 29213 | – | 3 µM |
| CC[C@H]1OC(=O)[C@H](C)[C@@H](OC(=O)c2ccc([N+](=O)[O-])cc2)[C@H](C)[C@@H](O[C@@H]2O[C@H](C)C[C@H](N(C)C)[C@H]2O)[C@](C)(OC)C[C@@H](C)C(=O)[C@H](C)[C@@H](O)[C@]1(C)O | – | ATCC 43300 MRSA | – | > 64 µg/mL |
| CCCCCCCCn1cc[n+](CCCCOc2cc(OCCCC[n+]3ccn(CCCCCCCC)c3)cc(OCCCC[n+]3ccn(CCCCCCCC)c3)c2)c1.[Br-].[Br-].[Br-] | – | HA-MRSA ATCC 33591 | – | 1 µM |
| CCCCOC(=O)c1ccc(NC(=O)Nc2ccc(Cl)c(C(F)(F)F)c2)cc1 | microbial growth | NCTC8325 | – | 0.6 µM |
| CCCCCCCC(=O)N[C@@H](CC(N)=O)C(=O)N[C@H]1CNC(=O)[C@H](c2ccc(O)c(Cl)c2)NC(=O)[C@@H](C)NC(=O)[C@H](CC(C)C)NC(=O)CNC(=O)[C@H](c2ccc(O)cc2)NC(=O)[C@@H]([C@H](C)O)NC(=O)[C@H](c2ccc(O)cc2)NC(=O)[C@@H](CCCN)NC(=O)[C@H](Cc2ccccc2)NC(=O)[C@H]([C@@H](C)O)NC(=O)[C@@H](c2ccc(O)cc2)NC(=O)[C@H](c2ccc(O)cc2)NC(=O)[C@@H]([C@H](C)O)NC(=O)[C@@H](CCCN)NC(=O)[C@@H](c2ccc(O)cc2)NC1=O | broth microdilution | MSSA ATCC 29213 | – | 2.2 µg/mL |
| CCCCCC(=O)Oc1c(C)c(OC)c2c(/C=C/c3ccccc3)c(CCCC)c(=O)oc2c1C | microbial growth, broth dilution | ATCC25923 | – | 2500 µg/mL |
| CC[C@H]1OC(=O)[C@H](C)[C@@H](OC(=O)Cc2ccc(Cl)cc2)[C@H](C)[C@@H](O[C@@H]2O[C@H](C)C[C@H](N(C)C)[C@H]2O)[C@](C)(OC)C[C@@H](C)C(=O)[C@H](C)[C@@H](O)[C@]1(C)O | – | BAA-977 | – | 4 µg/mL |
| C[C@@H]1C(=O)O[C@@H](C)/C=C/C=C\[C@@H](C)[C@@H]2C=C[C@@H]3C[C@@]4(C)O[C@H]4[C@@H](C)[C@H]3[C@@H]2C(=O)C(Cl)(Cl)C1=O | – | MRSA clinical isolate | resistant, ERY, CLI, TET, OXA, SXT | 0.0125 µg/mL |
| CC[C@H](C)[C@H](N)C1=N[C@H](C(=O)N[C@@H](CC(C)C)C(=O)N[C@H](CCC(=O)O)C(=O)N[C@H](C(=O)N[C@H]2CCCCNC(=O)[C@H](CC(N)=O)NC(=O)[C@@H](CC(=O)O)NC(=O)[C@H](Cc3c[nH]cn3)NC(=O)[C@@H](Cc3ccccc3)NC(=O)[C@H]([C@@H](C)CC)NC(=O)[C@@H](CCCN)NC2=O)[C@@H](C)CC)CS1 | – | ATCC 29213 MSSA | LB with 0.3 mM ZnSO4 | 1 µg/mL |
| CCC(CC)c1cc(CCN2CCCN(C(=O)OC(C)(C)C)CC2)nc(-c2ccccn2)n1 | microbial growth, broth dilution | ATCC29213 | – | > 16 µg/mL |
| CCN1CCC(CCNCc2cc3ccccc3nc2SCc2ccccc2)CC1 | microbial growth, broth dilution | – | – | 64 µg/mL |
| CC[C@H]1OC(=O)[C@H](C)C(=O)[C@H](C)[C@@H](O[C@@H]2O[C@H](C)C[C@H](N(C)C)[C@H]2O)[C@](C)(OC)C[C@@H](C)C(=O)[C@H](C)[C@H]2N(CCCCn3cnc(-c4cccnc4)c3)C(=O)O[C@]12C | – | BAA-977 | – | 4 µg/mL |
| CCCCCCCC[N+](C)(C)CCCCCCOc1cc(OCCCCCC[N+](C)(C)CCCCCCCC)cc(OCCCCCC[N+](C)(C)CCCCCCCC)c1.[Br-].[Br-].[Br-] | – | HA-MRSA ATCC 33591 | – | 1 µM |
| CC[C@H]1OC(=O)[C@H](C)[C@@H](OC(=O)CC2CCCCC2)[C@H](C)[C@@H](O[C@@H]2O[C@H](C)C[C@H](N(C)C)[C@H]2O)[C@](C)(OC)C[C@@H](C)C(=O)[C@H](C)[C@@H](O)[C@]1(C)O | – | BAA-977 | – | 2 µg/mL |
| C/C(=C\c1ccc(O)cc1)C(=O)Nc1ccc(C(=O)N[C@@H](Cc2c[nH]nn2)C(=O)Nc2ccc(C(=O)Nc3ccc(C(=O)Nc4ccc(C(=O)O)c(O)c4)c(O)c3)cc2)cc1 | broth microdilution | ciprofloxacin-resistant | – | 2 µg/mL |
| CCCCCCCCCCCC[N+](C)(C)CCCCCCCCCCOc1cc(OCCCCCCCCCC[N+](C)(C)CCCCCCCCCCCC)cc(OCCCCCCCCCC[N+](C)(C)CCCCCCCCCCCC)c1.[Br-].[Br-].[Br-] | – | HA-MRSA ATCC 33591 | – | > 250 µM |
| CCCCCCC#Cc1cncc(-c2nnc(SCc3cc([N+](=O)[O-])cc([N+](=O)[O-])c3)n2C)c1 | microbial growth, broth dilution | ATCC29213 | – | > 64 µg/mL |
| COc1nc(C(=O)Nc2ccc(C(=O)O)c(O)c2OC)ccc1NC(=O)c1ccc(NC(=O)[C@H](Cc2c[nH]nn2)NC(=O)c2ccc(NC(=O)/C(C)=C/c3ccc(O)cc3)cc2)cc1 | broth microdilution | ciprofloxacin-sensitive | – | 1 µg/mL |
| CC[C@H]1OC(=O)[C@H](C)[C@@H](OC(=O)Cc2ccc3c(c2)OCO3)[C@H](C)[C@@H](O[C@@H]2O[C@H](C)C[C@H](N(C)C)[C@H]2O)[C@](C)(OC)C[C@@H](C)C(=O)[C@H](C)[C@@H](O)[C@]1(C)O | – | BAA-977 | – | 0.5 µg/mL |

Repeated from above:
| Compound | assay | system | conditions | MIC |
| --- | --- | --- | --- | --- |
| CCCCCC(=O)Oc1c(C)c(OC)c2c(/C=C/c3ccccc3)c(CCCC)c(=O)oc2c1C | microbial growth, broth dilution | ATCC25923 | – | 2500 µg/mL |
| CC[C@H]1OC(=O)[C@H](C)[C@@H](OC(=O)Cc2ccc(Cl)cc2)[C@H](C)[C@@H](O[C@@H]2O[C@H](C)C[C@H](N(C)C)[C@H]2O)[C@](C)(OC)C[C@@H](C)C(=O)[C@H](C)[C@@H](O)[C@]1(C)O | – | BAA-977 | – | 4 µg/mL |
| C[C@@H]1C(=O)O[C@@H](C)/C=C/C=C\[C@@H](C)[C@@H]2C=C[C@@H]3C[C@@]4(C)O[C@H]4[C@@H](C)[C@H]3[C@@H]2C(=O)C(Cl)(Cl)C1=O | – | MRSA clinical isolate | resistant, ERY, CLI, TET, OXA, SXT | 0.0125 µg/mL |
